Results pooled from the literature.
A part holds a random share of what one study measured.
Sequence of UniProt Q15349 (whole entry, looked up): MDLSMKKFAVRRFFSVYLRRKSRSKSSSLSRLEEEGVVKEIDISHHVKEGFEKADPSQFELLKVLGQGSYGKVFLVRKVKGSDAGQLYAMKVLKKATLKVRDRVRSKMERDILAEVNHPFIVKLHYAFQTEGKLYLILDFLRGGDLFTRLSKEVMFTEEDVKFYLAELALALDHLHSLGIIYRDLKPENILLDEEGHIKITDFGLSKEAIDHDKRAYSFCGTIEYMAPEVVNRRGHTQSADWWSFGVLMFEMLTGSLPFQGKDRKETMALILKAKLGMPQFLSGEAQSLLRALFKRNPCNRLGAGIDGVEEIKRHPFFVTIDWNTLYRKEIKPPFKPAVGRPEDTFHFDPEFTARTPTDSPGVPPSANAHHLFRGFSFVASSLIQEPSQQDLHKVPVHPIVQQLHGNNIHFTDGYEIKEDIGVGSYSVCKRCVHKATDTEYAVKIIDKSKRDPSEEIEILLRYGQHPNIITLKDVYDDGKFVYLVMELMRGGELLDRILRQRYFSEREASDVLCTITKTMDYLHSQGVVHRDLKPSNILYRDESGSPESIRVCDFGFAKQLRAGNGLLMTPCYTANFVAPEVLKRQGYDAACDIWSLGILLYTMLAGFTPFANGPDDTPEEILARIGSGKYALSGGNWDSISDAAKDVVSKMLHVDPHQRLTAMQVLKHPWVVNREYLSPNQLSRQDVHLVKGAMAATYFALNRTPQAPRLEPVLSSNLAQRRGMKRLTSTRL
Sequence of UniProt P27361 (whole entry, looked up): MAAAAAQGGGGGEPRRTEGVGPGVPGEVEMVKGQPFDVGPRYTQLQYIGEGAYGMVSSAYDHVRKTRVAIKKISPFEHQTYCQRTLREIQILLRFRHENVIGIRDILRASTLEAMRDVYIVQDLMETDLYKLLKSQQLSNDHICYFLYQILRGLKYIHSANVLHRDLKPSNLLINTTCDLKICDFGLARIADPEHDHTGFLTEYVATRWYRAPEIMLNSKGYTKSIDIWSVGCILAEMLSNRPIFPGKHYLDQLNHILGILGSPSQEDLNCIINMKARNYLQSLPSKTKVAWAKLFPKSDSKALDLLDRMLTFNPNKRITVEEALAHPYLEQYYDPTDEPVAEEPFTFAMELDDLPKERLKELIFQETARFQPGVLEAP
Sequence of UniProt P68036 (whole entry, looked up): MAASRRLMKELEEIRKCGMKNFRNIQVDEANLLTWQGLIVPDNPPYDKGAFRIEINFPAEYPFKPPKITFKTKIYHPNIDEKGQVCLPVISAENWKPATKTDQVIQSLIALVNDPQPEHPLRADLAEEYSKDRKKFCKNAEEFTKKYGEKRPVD
Sequence of UniProt Q96PY6 (whole entry, looked up): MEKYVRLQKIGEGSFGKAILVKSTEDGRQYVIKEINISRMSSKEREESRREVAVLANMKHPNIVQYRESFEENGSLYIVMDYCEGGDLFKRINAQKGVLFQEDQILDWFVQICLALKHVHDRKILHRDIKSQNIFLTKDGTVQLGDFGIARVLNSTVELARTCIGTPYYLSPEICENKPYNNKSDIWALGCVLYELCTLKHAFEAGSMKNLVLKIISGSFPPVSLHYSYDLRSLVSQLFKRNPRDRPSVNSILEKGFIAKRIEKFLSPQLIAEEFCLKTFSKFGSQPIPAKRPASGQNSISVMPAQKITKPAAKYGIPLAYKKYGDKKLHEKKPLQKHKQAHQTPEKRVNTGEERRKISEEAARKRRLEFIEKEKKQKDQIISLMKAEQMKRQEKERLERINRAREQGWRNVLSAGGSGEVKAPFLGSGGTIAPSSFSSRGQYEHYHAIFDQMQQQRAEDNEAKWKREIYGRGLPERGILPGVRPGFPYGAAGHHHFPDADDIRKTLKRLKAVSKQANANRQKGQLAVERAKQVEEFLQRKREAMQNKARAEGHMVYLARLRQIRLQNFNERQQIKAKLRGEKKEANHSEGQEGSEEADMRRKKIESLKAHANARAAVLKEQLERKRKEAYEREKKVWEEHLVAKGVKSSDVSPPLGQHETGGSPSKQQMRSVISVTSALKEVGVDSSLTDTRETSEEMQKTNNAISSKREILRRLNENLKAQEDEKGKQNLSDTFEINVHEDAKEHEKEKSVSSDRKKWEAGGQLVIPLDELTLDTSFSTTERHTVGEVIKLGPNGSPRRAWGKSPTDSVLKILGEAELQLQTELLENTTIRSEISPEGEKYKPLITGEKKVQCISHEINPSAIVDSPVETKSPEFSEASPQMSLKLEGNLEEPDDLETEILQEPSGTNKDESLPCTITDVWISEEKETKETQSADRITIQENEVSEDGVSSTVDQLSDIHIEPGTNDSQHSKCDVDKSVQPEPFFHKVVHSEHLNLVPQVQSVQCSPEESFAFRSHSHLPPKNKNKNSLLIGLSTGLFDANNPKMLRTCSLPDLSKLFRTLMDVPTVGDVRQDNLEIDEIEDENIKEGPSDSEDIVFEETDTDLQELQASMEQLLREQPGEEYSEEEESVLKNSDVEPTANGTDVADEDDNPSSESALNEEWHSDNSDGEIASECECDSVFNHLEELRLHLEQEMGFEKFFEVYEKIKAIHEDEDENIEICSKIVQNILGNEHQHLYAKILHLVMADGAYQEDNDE
Sequence of UniProt P52333 (whole entry, looked up): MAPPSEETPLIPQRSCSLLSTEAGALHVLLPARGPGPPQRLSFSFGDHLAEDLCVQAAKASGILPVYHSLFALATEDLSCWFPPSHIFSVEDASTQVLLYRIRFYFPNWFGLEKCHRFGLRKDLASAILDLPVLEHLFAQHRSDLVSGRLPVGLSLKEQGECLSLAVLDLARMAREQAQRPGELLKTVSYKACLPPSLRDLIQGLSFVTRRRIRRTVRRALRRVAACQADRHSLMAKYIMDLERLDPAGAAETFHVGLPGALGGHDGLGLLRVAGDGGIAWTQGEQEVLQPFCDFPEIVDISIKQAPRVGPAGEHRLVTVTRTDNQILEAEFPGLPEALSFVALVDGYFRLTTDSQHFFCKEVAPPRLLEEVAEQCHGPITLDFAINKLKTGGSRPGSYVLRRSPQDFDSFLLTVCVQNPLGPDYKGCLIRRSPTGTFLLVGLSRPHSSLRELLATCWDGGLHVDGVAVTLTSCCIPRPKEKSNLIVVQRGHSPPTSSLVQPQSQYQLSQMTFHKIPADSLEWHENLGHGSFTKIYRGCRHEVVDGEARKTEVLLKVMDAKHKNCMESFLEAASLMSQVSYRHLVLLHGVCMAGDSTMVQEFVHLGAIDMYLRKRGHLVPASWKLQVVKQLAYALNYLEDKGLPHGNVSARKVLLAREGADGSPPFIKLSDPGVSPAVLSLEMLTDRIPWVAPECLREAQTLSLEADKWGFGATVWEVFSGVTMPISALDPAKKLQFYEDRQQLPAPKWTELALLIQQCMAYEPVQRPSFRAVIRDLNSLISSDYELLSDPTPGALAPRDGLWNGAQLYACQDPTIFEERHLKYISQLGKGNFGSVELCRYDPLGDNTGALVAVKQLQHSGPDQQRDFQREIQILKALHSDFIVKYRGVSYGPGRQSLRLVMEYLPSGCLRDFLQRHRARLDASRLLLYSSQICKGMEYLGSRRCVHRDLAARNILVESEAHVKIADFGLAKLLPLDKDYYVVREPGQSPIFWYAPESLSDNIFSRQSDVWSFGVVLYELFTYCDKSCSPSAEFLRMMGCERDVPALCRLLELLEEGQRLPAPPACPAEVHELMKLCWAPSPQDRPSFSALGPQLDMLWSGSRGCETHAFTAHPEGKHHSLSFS
Sequence of UniProt Q12866 (whole entry, looked up): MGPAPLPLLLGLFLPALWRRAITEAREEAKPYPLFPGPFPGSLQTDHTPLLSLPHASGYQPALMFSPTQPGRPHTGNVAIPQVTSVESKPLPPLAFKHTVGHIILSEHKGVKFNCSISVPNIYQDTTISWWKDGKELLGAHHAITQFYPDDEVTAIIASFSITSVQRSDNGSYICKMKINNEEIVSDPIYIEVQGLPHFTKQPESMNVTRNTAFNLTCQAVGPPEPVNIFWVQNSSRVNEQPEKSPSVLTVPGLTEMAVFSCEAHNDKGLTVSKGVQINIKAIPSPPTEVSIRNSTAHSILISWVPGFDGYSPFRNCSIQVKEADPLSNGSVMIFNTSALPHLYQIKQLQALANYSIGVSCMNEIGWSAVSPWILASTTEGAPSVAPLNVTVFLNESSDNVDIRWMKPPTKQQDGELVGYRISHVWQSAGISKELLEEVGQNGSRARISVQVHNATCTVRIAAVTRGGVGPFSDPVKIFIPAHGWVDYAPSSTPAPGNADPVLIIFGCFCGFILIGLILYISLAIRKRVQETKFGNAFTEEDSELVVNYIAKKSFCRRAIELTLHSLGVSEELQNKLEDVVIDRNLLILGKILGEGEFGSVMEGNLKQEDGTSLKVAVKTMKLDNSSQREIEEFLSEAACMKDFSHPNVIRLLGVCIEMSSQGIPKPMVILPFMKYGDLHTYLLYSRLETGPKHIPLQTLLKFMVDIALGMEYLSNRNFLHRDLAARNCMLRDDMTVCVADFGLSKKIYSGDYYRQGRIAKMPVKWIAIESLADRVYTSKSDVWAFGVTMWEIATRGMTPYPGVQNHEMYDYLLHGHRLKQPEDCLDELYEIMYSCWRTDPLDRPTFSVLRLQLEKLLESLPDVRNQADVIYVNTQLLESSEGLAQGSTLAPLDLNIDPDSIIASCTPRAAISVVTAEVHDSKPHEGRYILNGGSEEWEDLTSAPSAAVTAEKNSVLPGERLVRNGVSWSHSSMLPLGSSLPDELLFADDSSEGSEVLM
Sequence of UniProt P62253 (whole entry, looked up): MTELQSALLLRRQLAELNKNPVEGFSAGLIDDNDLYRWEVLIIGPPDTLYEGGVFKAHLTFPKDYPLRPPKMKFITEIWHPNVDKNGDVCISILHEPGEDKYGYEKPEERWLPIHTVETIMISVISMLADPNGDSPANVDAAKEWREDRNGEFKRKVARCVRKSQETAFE

Block 1
Target: Prothrombin, mature alpha-thrombin (F2, Homo sapiens, UniProt P00734)
Technique: aptamer microarray, sandwich
Molecule type: DNA with 2'F-ANA
Medium: in vitro
Tested at: 200 nM
Setting: whole 15-mer aptamer, many near background
With: Cy3 exosite-II aptamer, 400 nM
Reading: higher = stronger binding
Strand: GGTTGGTGTGGTTGG
| Modification | mean fluorescence intensity [a.u.] |
| --- | --- |
| 2'F-ANA at 1 4 5 6 7 8 9 10 14 | 44.6 |
| 2'F-ANA at 3 5 6 11 14 | 48.1 |
| 2'F-ANA at 2 3 6 8 11 12 14 15 | 355 |
| 2'F-ANA at 2 3 4 5 6 7 8 9 10 11 15 | 48.1 |
| 2'F-ANA at 2 3 5 9 11 | 136 |
| 2'F-ANA at 1 2 3 4 5 6 7 10 11 14 15 | 74.4 |
| 2'F-ANA at 2 3 5 6 7 8 10 11 13 14 | 58.4 |
| 2'F-ANA at 3 4 6 8 9 10 12 13 15 | 204 |

Block 2
Sequence: B1 (CUL9 RING domain)
Technique: yeast two-hybrid
Medium: yeast
Setting: mostly zero background
Relative to: not given
Reading: higher = stronger interaction
B1: CUL9 RING domain (UniProt Q8IWT3); chain AQAVPVRPDHCPVCVSPLGCDDDLPSLCCMHYCCKSCWNEYLTTRIEQNLVLNCTCPIADCPAQPTGAFIR
| target | lacZ reporter activity |
| --- | --- |
| UBE2L3 UBC core domain (UniProt P68036) | 0 |
| UBE2D1 UBC core domain (UniProt P51668) | 0 |
| UBE2G1 UBC core domain (UniProt P62253) | 0 |
| UBE2B UBC core domain (UniProt P63146) | 0 |
| UBE2S UBC core domain (UniProt Q16763) | 0 |
| UBE2I UBC core domain (UniProt P63279) | 0 |
| UBE2C UBC core domain (UniProt O00762) | 0 |
| UBE2Z UBC core domain (UniProt Q9H832) | 0 |

Block 3
Target: Translocator protein (Tspo, Rattus norvegicus, UniProt P16257)
Sequence of UniProt P16257 (whole entry, looked up): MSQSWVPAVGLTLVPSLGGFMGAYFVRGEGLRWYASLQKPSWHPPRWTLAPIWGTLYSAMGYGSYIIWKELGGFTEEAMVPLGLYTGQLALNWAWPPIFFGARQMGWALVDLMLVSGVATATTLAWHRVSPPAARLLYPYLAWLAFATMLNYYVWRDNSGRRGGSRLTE
Observed: radioligand binding
Technique: radioligand displacement
Tested at: 10 µM
| Compound | inhibition |
| --- | --- |
| CN(C)c1ncnc(-c2ccc3nc(Nc4cc(CN5CCN(C(=O)CC(F)(F)F)CC5)ccn4)[nH]c3c2)c1Cl | 13.9% |
| O=C(Nc1ccc(-n2nc(-c3cccnc3)cc2C(F)(F)F)cn1)c1ccc(-c2ccccc2)c(F)c1 | 15% |
| c1ccc(N2CCN(Cc3nc4ccccc4[nH]3)CC2)nc1 | 2.93% |
| C[C@@H]1CN(c2cc(-c3nn(C)c4ccc(OC5(C)CC5)cc34)ncn2)C[C@H](C)O1 | 46.1% |

Block 4
Structure (SMILES): CC(C)(C)n1nc(Cc2cccc3ccccc23)c2c(N)ncnc21
Observed: enzyme activity
Mode: inhibitor
Tested at: 0.5 µM
Relative to: control
| target | remaining activity [%] |
| --- | --- |
| Tyrosine-protein kinase Mer (MERTK, Homo sapiens, UniProt Q12866) | 94.5 |
| Serine/threonine-protein kinase Nek1 (NEK1, Homo sapiens, UniProt Q96PY6) | 83.6 |
| Wee1-like protein kinase (WEE1, Homo sapiens, UniProt P30291) | 84.6 |
| Mitogen-activated protein kinase 3 (MAPK3, Homo sapiens, UniProt P27361) | 92 |
| Angiopoietin-1 receptor (TEK, Homo sapiens, UniProt Q02763) | 99.7 |
| Glycogen synthase kinase-3 beta (GSK3B, Homo sapiens, UniProt P49841) | 99.8 |
| Tyrosine-protein kinase JAK3 (JAK3, Homo sapiens, UniProt P52333) | 99.3 |
| Mitogen-activated protein kinase kinase kinase 5 (MAP3K5, Homo sapiens, UniProt Q99683) | 95.2 |
| Ribosomal protein S6 kinase alpha-2 (RPS6KA2, Homo sapiens, UniProt Q15349) | 88.2 |
| Serine/threonine-protein kinase A-Raf (ARAF, Homo sapiens, UniProt P10398) | 93.6 |
| Mitogen-activated protein kinase kinase kinase 14 (MAP3K14, Homo sapiens, UniProt Q99558) | 102 |
| Fibroblast growth factor receptor 1 (FGFR1, Homo sapiens, UniProt P11362) | 73.8 |
| Serine/threonine-protein kinase TAO2 (TAOK2, Homo sapiens, UniProt Q9UL54) | 89.3 |
| Macrophage-stimulating protein receptor (MST1R, Homo sapiens, UniProt Q04912) | 98.1 |
